Measured values from different studies.
Lines come from different studies, so protocols differ. Values joined by “and” are separate records of one study, mostly repeats; a detail may differ. Numbers after ± are the reported error.
Secreted effector protein N-terminal domain: Secreted effector protein, N-terminal domain (Yersinia pestis, UniProt O68720)
cyp121: Mycocyclosin synthase (cyp121, Mycobacterium tuberculosis, UniProt P9WPP7)
Chain of UniProt P9WPP7 (whole entry, looked up): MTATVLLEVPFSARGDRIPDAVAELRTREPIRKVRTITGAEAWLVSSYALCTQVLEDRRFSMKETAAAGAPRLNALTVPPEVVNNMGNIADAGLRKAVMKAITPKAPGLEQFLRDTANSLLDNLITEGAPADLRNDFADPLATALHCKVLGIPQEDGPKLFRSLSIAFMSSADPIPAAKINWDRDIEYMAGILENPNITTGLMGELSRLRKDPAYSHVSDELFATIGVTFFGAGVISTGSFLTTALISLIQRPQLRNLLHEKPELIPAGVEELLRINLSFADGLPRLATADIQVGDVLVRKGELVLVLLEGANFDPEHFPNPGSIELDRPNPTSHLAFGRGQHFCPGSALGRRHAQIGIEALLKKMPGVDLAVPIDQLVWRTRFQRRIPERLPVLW
Chain of UniProt P0C2E9 (whole entry, looked up): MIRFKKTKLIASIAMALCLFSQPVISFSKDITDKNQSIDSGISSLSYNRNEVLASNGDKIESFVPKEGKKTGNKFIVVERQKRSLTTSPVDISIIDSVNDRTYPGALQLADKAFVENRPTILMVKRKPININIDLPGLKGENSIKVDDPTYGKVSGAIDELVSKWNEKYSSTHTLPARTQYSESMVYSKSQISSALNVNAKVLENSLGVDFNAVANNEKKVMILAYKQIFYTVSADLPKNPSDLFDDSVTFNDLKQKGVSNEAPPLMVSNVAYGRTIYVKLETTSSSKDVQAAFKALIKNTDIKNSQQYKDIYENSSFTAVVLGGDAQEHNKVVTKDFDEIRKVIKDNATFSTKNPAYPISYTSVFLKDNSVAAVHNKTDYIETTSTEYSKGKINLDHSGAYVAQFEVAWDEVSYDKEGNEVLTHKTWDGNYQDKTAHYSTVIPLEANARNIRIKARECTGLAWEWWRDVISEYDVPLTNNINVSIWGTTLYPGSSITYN
Chain of UniProt P41143 (whole entry, looked up): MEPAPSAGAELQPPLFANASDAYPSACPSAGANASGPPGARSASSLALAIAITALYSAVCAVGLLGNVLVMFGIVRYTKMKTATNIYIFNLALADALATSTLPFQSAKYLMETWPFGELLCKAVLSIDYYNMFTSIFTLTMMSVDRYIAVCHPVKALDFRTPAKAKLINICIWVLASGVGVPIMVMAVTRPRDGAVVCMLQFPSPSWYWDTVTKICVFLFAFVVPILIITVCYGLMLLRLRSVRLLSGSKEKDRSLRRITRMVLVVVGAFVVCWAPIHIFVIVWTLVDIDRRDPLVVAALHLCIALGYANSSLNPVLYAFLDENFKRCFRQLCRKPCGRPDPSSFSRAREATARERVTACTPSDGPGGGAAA
Chain of UniProt P35372 (whole entry, looked up): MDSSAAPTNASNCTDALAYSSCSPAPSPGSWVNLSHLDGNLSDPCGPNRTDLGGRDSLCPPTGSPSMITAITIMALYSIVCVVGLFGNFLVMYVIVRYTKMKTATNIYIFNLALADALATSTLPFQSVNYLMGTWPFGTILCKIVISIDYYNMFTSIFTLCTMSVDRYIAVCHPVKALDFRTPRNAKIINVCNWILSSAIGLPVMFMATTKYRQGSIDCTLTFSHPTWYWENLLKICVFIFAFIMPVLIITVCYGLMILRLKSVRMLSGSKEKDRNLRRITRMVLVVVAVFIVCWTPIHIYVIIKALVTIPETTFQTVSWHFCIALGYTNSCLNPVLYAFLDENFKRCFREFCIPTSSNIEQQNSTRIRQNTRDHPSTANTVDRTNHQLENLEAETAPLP
Chain of UniProt Q05323 (whole entry, looked up): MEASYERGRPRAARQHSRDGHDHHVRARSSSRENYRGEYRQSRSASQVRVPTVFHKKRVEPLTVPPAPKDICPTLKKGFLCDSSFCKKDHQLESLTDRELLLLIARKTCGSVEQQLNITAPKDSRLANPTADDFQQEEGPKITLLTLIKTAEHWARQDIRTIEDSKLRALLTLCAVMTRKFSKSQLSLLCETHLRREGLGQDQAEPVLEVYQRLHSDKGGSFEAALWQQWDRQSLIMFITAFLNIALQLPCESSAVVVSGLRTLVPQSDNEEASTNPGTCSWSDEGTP
Chain of UniProt P41145 (whole entry, looked up): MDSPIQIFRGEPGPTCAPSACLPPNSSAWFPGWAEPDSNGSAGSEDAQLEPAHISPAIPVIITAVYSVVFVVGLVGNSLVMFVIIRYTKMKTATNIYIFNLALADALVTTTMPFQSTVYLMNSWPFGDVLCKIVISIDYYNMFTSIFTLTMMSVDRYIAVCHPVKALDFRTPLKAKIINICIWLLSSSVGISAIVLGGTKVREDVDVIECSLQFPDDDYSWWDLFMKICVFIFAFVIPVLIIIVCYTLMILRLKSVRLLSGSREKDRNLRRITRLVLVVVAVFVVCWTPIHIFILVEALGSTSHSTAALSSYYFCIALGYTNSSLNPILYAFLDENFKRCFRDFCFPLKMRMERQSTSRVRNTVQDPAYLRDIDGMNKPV

SMILES	target or system	assay	test system	setting	quantity	value
CC(=O)N[C@@H](Cc1ccc(OP(=O)(O)O)cc1)C(=O)N[C@H](C(=O)N[C@@H](CC(=O)O)C(=O)N1CCC[C@H]1C(N)=O)C1CCCC1	Secreted effector protein N-terminal domain	biochemical	–	–	Kd	1.4 µM
CCCCCCCCCCCCCCCC(=O)N[C@@H](CCC(=O)NCCOCCOCCC(=O)NCCOCCOCCC(=O)NCCCC[C@H](NC(=O)[C@H](CC(=O)O)NC(=O)[C@H](CC(C)C)NC(=O)[C@H](Cc1ccc(O)cc1)NC(=O)[C@H](CCCCN)NC(=O)[C@H](CO)NC(=O)[C@H](Cc1ccc(O)cc1)NC(=O)[C@H](CC(=O)O)NC(=O)[C@H](CO)NC(=O)[C@@H](NC(=O)[C@H](Cc1ccccc1)NC(=O)[C@@H](NC(=O)CNC(=O)[C@H](CCC(N)=O)NC(=O)[C@@H](CO)NC(=O)[C@@H](N)Cc1c[nH]cn1)[C@@H](C)O)[C@@H](C)O)C(=O)N[C@@H](CCCNC(=N)N)C(=O)N[C@@H](CCCNC(=N)N)C(=O)N[C@@H](C)C(=O)N[C@@H](CCC(N)=O)C(=O)N[C@@H](CC(=O)O)C(=O)N[C@@H](Cc1ccccc1)C(=O)N[C@H](C(=O)N[C@@H](CCC(N)=O)C(=O)N[C@@H](Cc1c[nH]c2ccccc12)C(=O)N[C@@H](CC(C)C)C(=O)N[C@@H](CC(C)C)C(=O)N[C@@H](CC(N)=O)C(=O)N[C@H](C(=O)NCC(=O)NCC(=O)N1CCC[C@H]1C(=O)N[C@@H](CO)C(=O)N[C@@H](CO)C(=O)NCC(=O)N[C@@H](C)C(=O)N1CCC[C@H]1C(=O)N1CCC[C@H]1C(=O)N1CCC[C@H]1C(=O)N[C@@H](CO)C(N)=O)[C@@H](C)O)C(C)C)C(=O)O	–	measured: CK	Sprague-Dawley rat, female	subcutaneous, 20 µg/kg once daily, 14 days	serum enzyme activity	368 ± 169 U/L
C1=CC2=C(c3cc[n+](Cc4ccccc4)cc3)c3ccc4[n]3[Zn][n]3c(ccc3=C(c3cc[n+](Cc5ccccc5)cc3)C3=NC(=C4c4cc[n+](Cc5ccccc5)cc4)C=C3)=C(c3cc[n+](Cc4ccccc4)cc3)C1=N2	Major prion protein (PRNP, Homo sapiens, UniProt P04156)	binding	–	–	Kd	3.1 ± 0.1 µM
O=C(OC1Cc2c(O)cc(O)cc2OC1c1cc(O)c(O)c(O)c1)c1cc(O)c(O)c(O)c1 (single isomer, unassigned; (-))	Nucleoprotein (Severe acute respiratory syndrome coronavirus 2, UniProt P0DTC9)	binding, biolayer interferometry	–	–	Kd	3.88 ± 0.29 µM
CC[C@H](C)[C@H](NC(=O)[C@H](CC(C)C)NC(=O)[C@@H](N)Cc1ccc(O)cc1)C(=O)N[C@H]1CSc2ccc(cc2)SC[C@@H](C(=O)NCC(=O)N[C@@H](Cc2ccccc2)C(=O)N[C@@H](CC(C)C)C(=O)N[C@@H](CCCCN)C(=O)N[C@@H](CCCCN)C(=O)N[C@@H](CCCCN)C(=O)N[C@@H](CCCCNC(=O)CCCC[C@@H]2SC[C@@H]3NC(=O)N[C@@H]32)C(N)=O)NC(=O)[C@H](CC(=O)O)NC(=O)[C@H]([C@@H](C)O)NC(=O)[C@H](Cc2ccc(O)cc2)NC1=O	Gag polyprotein, capsid C-terminal domain (gag, UniProt P12493)	binding, biolayer interferometry	PBS	pH 7.4, 30 °C, biotinylated peptide immobilised, together with: C-CA 5 to 100 µM	Kd	> 100 µM
CCCCCCCC(O)CC(=O)CCc1ccc(O)c(OC)c1 (stereo not drawn)	Transcriptional activator VP30 (VP30, Zaire ebolavirus, UniProt Q05323)	–	Ebola virus	–	Kd	17.9 µM
FC(F)(F)c1ccc(-c2ccc(Cn3ccnc3)cc2)cc1	cyp121	binding	–	–	Kd	5.6 µM and ≤ 6 µM
COCCOc1cc(OCCOC)cc(C(=O)NCCOC(=O)[C@@H]2CCCCN2S(=O)(=O)Cc2ccccc2)c1	Peptidyl-prolyl cis-trans isomerase (Burkholderia pseudomallei, UniProt Q63J95)	–	–	–	Kd	8.9 ± 0.2 µM
Cc1ccc(N2CC3CC(C2)N3)cc1C(=O)NC1(c2ccc3c4c(cccc24)C(=O)N3C)CC1	Replicase polyprotein 1a, papain-like protease (Severe acute respiratory syndrome coronavirus 2, UniProt P0DTC1)	binding, ITC	–	–	Kd	0.00583 µM
CC(C)=CCCC(C)(OC1OC(COC2OC(CO)C(O)C2OC2OCC(O)C(O)C2O)C(O)C(O)C1O)C1CCC2(C)C1C(O)CC1C3(C)CCC(OC4OC(CO)C(O)C(O)C4OC4OC(CO)C(O)C(O)C4O)C(C)(C)C3CCC12C (stereo not drawn)	Spike glycoprotein, S1 subunit (Severe acute respiratory syndrome coronavirus, UniProt P59594)	binding	–	–	Kd	55.6 µM
CC(C)C[C@H](NC(=O)[C@H](CO[C@@H]1O[C@H](CO)[C@@H](O)[C@H](O)[C@H]1O)NC(=O)[C@H](CCCCN)NC(=O)[C@H](CC(C)C)NC(=O)[C@H](C)NC(=O)[C@H](CCCCN)NC(=O)[C@H](CCC(=O)O)NC(=O)CNC(=O)[C@H](CC(C)C)NC(=O)[C@H](CC(N)=O)NC(=O)[C@@H]1CCCN1C(=O)[C@H](CC(C)C)NC(=O)[C@H](Cc1ccccc1)NC(=O)CNC(=O)[C@H](NC(=O)[C@@H](N)Cc1ccc(O)cc1)[C@H](C)O)C(N)=O	OPRK1 (Homo sapiens, UniProt P41145)	ligand displacement, radioligand	–	pH 7.5, cell membranes	Ki	0.011 µM
CC(=O)N[C@@H](CCCCN)C(=O)N[C@@H](Cc1ccc(OP(=O)(O)O)cc1)C(=O)N[C@H](C(=O)N[C@@H](CC(=O)O)C(N)=O)C1CCCC1	Secreted effector protein N-terminal domain	biochemical	–	–	Kd	128 µM
CSc1ccc(-c2ccc(Cn3ccnc3)cc2)s1	cyp121	binding	–	–	Kd	6.6 ± 1 µM
CC[C@H](C)[C@H](NC(=O)[C@H](CCCCN)NC(=O)[C@H](CCCCN)NC(=O)[C@H](CC(C)C)NC(=O)[C@H](Cc1c[nH]c2ccccc12)NC(=O)CN)C(=O)NCC(=O)N[C@@H](CCCCN)C(=O)N[C@@H](CCCCN)C(=O)N[C@H](C(=O)N[C@@H](CCC(=O)O)C(=O)N[C@@H](CCCNC(=N)N)C(=O)N[C@H](C(=O)NCC(=O)N[C@@H](CCC(N)=O)C(=O)N[C@@H](Cc1c[nH]cn1)C(=O)N[C@H](C(=O)N[C@@H](CCCNC(=N)N)C(=O)N[C@@H](CC(=O)O)C(=O)N[C@@H](C)C(=O)N[C@H](C(=O)N[C@H](C(=O)N[C@@H](CCC(N)=O)C(=O)N[C@H](C(=O)N[C@H](C(=O)NCC(=O)N[C@H](C(=O)N[C@@H](C)C(=O)N[C@@H](CCC(N)=O)C(=O)N[C@@H](CCC(N)=O)C(=O)N[C@@H](C)C(=O)N[C@@H](C)C(=O)N[C@@H](CC(N)=O)C(=O)N[C@H](C(=O)N[C@@H](C)C(=O)N[C@@H](C)C(=O)N[C@H](C(=O)N[C@@H](CC(C)C)C(=O)N[C@@H](CCCCN)C(N)=O)[C@@H](C)O)C(C)C)C(C)C)[C@@H](C)CC)[C@@H](C)O)[C@@H](C)CC)[C@@H](C)O)[C@@H](C)O)C(C)C)[C@@H](C)CC	Listeria monocytogenes	–	DSM 20600, CAMHB	–	MIC	> 1020 µg/mL
Cc1cc(O)cc(C)c1C[C@H](N)C(=O)NCC(=O)NCC(=O)N[C@@H](Cc1ccccc1)C(=O)N[C@H](C(=O)NCC(=O)N[C@@H](C)C(=O)N[C@@H](CCCNC(=N)N)C(=O)N[C@@H](CCCCN)C(=O)N[C@@H](CO)C(=O)N[C@@H](C)C(=O)N[C@@H](CCCNC(=N)N)C(=O)N[C@@H](CCCCN)C(N)=O)[C@@H](C)O	OPRM1 (Homo sapiens, UniProt P35372)	β-arrestin 2 recruitment, agonist, BRET	SH-SY5Y cells	15 min, room temperature	EC50	0.0741 µM
CC(C)C[C@H](NC(=O)[C@H](CO[C@@H]1O[C@H](CO)[C@@H](O[C@@H]2O[C@H](CO)[C@H](O)[C@H](O)[C@H]2O)[C@H](O)[C@H]1O)NC(=O)[C@H](CCCCN)NC(=O)[C@H](CC(C)C)NC(=O)[C@H](C)NC(=O)[C@H](CCCCN)NC(=O)[C@H](CCC(=O)O)NC(=O)[C@H](C)NC(=O)[C@H](CC(C)C)NC(=O)[C@H](CC(N)=O)NC(=O)[C@@H]1CCCN1C(=O)[C@H](CC(C)C)NC(=O)[C@H](Cc1ccccc1)NC(=O)CNC(=O)[C@H](NC(=O)[C@@H](N)Cc1ccc(O)cc1)[C@H](C)O)C(N)=O	OPRD1 (Homo sapiens, UniProt P41143)	ligand displacement, radioligand	–	pH 7.5, cell membranes	Ki	0.012 µM
Fc1ccc(-c2ccc(Cn3ccnc3)c(F)c2)cc1F	cyp121	binding	–	–	Kd	6.4 ± 0.9 µM
CC(=O)NC1C(OC2C(O)C(CO)OC(O)C2OC2OC(C)C(O)C(O)C2O)OC(CO)C(O)C1O (stereo not drawn)	pfo (Clostridium perfringens, UniProt P0C2E9)	binding	–	–	Kd	5.1 µM and 5.11 µM

For quick reference, copied from above:
SMILES	target or system	assay	test system	setting	quantity	value
O=C(OC1Cc2c(O)cc(O)cc2OC1c1cc(O)c(O)c(O)c1)c1cc(O)c(O)c(O)c1 (single isomer, unassigned; (-))	Nucleoprotein (Severe acute respiratory syndrome coronavirus 2, UniProt P0DTC9)	binding, biolayer interferometry	–	–	Kd	3.88 ± 0.29 µM
CC[C@H](C)[C@H](NC(=O)[C@H](CC(C)C)NC(=O)[C@@H](N)Cc1ccc(O)cc1)C(=O)N[C@H]1CSc2ccc(cc2)SC[C@@H](C(=O)NCC(=O)N[C@@H](Cc2ccccc2)C(=O)N[C@@H](CC(C)C)C(=O)N[C@@H](CCCCN)C(=O)N[C@@H](CCCCN)C(=O)N[C@@H](CCCCN)C(=O)N[C@@H](CCCCNC(=O)CCCC[C@@H]2SC[C@@H]3NC(=O)N[C@@H]32)C(N)=O)NC(=O)[C@H](CC(=O)O)NC(=O)[C@H]([C@@H](C)O)NC(=O)[C@H](Cc2ccc(O)cc2)NC1=O	Gag polyprotein, capsid C-terminal domain (gag, UniProt P12493)	binding, biolayer interferometry	PBS	pH 7.4, 30 °C, biotinylated peptide immobilised, together with: C-CA 5 to 100 µM	Kd	> 100 µM
